Results from different studies.
Protocols differ between the studies behind these lines. Values joined by “and” are separate records of one study, mostly repeats; a detail may differ. Numbers after ± are the reported error.

SMILES = CC(C)Cc1ccc(C(C)C(=O)[Se]CC(=O)Nc2cccc(C(F)(F)F)c2)cc1 (centres unmarked); cell line = NCI60 NSCLC subpanel mean; test = cell growth; endpoint = TGI; value = 3590 nM
SMILES = CCCC[C@H](NC(C)=O)C(=O)N[C@@H](CCC(=O)O)C(=O)N[C@@H](CO)C(=O)N[C@@H](CC(=O)O)C(=O)COC(=O)c1c(C)cccc1C; cell line = THP-1 cells, LPS-primed; test = pyroptosis, LDH release; setting = 25 µM, LPS 1 µg/mL, 4 h, with: nigericin 5 µM, 2 h; endpoint = cell lysis; value = 36.5% and 20.5%
SMILES = CCOC(=O)c1cn(C23CCCC(C)(CCC4C2CC4(C)C)C3)nn1 (centres unmarked); cell line = HT-29; test = cell growth or viability, CCK-8; setting = 10 µM; endpoint = inhibition; value = < 50%
SMILES = COc1ccc(C2CC(=O)c3c(cc(O)c(CC=C(C)C)c3O)O2)cc1 (centres unmarked); cell line = HeLa; test = cell growth or viability, MTT; setting = 3.125 µM, 48 h; endpoint = inhibition; value = 4.62%
SMILES = O=CCNCCOn1c(=O)n(OCCNCCO)c(=O)n(OCCNCCOn2c(=O)n(OCCNCCO)c(=O)n(OCCNCCO)c2=O)c1=O; cell line = A549; test = cell growth or viability, MTT; setting = 200 µg/mL, 48 h; endpoint = viability; value = 13%
SMILES = NC(=O)c1ccc(-c2ccccc2Cl)c2c3c([nH]c12)CC[C@@H](N)C3; cell line = K562 parental; test = cell proliferation; endpoint = IC50; value = 13.9 nM
SMILES = CCC(=CCc1c(O)cc2c(c1O)C(=O)CC(c1cccc(O)c1OC)O2)CC (centres unmarked); cell line = HeLa; test = cell growth or viability, MTT; setting = 50 µM, 48 h; endpoint = inhibition; value = 76%
SMILES = COc1ccc(COC[C@](O)(CNCc2ccc(F)cc2)[C@@H]2CC[C@@H](C)C[C@H]2OCc2ccc(OC)cc2)cc1; cell line = A2780; test = cell growth or viability, MTT; setting = 30 µM, 72 h; endpoint = inhibition; value = 100%
SMILES = CCN(CC)CC(=O)Nc1cccc(-n2cc(-c3ccc4ccc(-c5cn(-c6cccc(NC(=O)CN(CC)CC)c6)nn5)cc4c3)nn2)c1; cell line = RCC4; test = PCR angiogenesis array, refers to: ANG; setting = 5 x IC50, 2 h, normoxia; how to read = reference: untreated; endpoint = fold regulation; value = -1.11
SMILES = CC(=O)N[C@@H](CO)C(=O)N[C@H](C(=O)N1CCC[C@H]1C(=O)N[C@@H](CC(=O)O)C(=O)COC(=O)c1c(C)cccc1C)C(C)(C)C; cell line = THP-1 cells, LPS-primed; test = pyroptosis, LDH release; setting = 25 µM, LPS 1 µg/mL, 4 h, with: nigericin 5 µM, 2 h; endpoint = cell lysis; value = 45.8% and 43.2%
SMILES = N#Cc1cccc(/C=C/C(=O)c2ccc(O)cc2)c1; cell line = U-87 MG; test = refers to: SIVA1; setting = concentration not given; how to read = reference: untreated; endpoint = fold change; value = 0.038
SMILES = C[C@@H]1CC[C@@H]([C@@](C)(O)Cn2ccnc2)[C@H](OCc2ccccc2)C1; cell line = A2780; test = cell growth or viability, MTT; setting = 30 µM, 72 h; endpoint = inhibition; value = 49.5%
SMILES = O=S(=O)(N[C@H]1CCO[C@@H](C2c3ccc(F)cc3CCc3cc(F)ccc32)C1)c1ccc(OC(F)(F)F)cc1; cell line = D341; test = immunoblot; setting = concentration not given, 72 h; endpoint = total PARP level; value = decreased
SMILES = CC(C)(C)c1cc(-c2ccc3cccnc3n2)nc(-c2ccc3cccnc3n2)c1.COc1ccncc1.[Cl-].[Cl-].[Ru+2].c1ccc2cc3nc4c5cccnc5c5ncccc5c4nc3cc2c1; cell line = SK-MEL-28; test = photocytotoxicity; setting = visible light 400-700 nm, 100 J/cm2, oxygen 1%; endpoint = EC50; value = 71000 ± 3500 nM
SMILES = CC(C)c1ccc(N(C)c2ccc3c(c2)OCC[C@H]3CNc2cnccc2C(=O)O)cc1; cell line = KYSE-150 overexpressing KDM4C; test = histone demethylation, HTRF, refers to: H3K36me3; setting = 24 h; endpoint = IC50; value = 0.4 nM
SMILES = [BH3-][P+]1(c2ccccc2)CCCCC1; cell line = HaCaT; test = ELISA; setting = IC50, 72 h; endpoint = IL-6 level; value = 12.9 ± 0.84 pg/mL
SMILES = N#C[C@@H]1CC(F)(F)CN1C(=O)CNC(=O)c1ccnc2ccc(OCCCN3CCN(C(=O)CCc4ccc5c(c4)CN4CCN(Cc6cc(CCC(=O)O)ccc6O)CC(=O)[O][Al-]([18F])([O]C(=O)C4)[O]5)CC3)cc12 (some centres unmarked); cell line = HT1080 cells expressing human FAP; setting = 15 min, 37 °C; endpoint = internalized fraction; value = 81.5 ± 2.9%
SMILES = CCC(=CCc1c(O)cc2c(c1O)C(=O)CC(c1ccccc1O)O2)CC (centres unmarked); cell line = HeLa; test = cell growth or viability, MTT; setting = 15 µM, 48 h; endpoint = inhibition; value = 13.2%
SMILES = CC12CCCC(n3cc(C(=O)N4CCC(O)CC4)nn3)(C1)C1CC(C)(C)C1CC2 (centres unmarked); cell line = HT-29; test = cell growth or viability, CCK-8; setting = 50 µM; endpoint = inhibition; value = 72.9%
SMILES = C1=[N+]2CCCC[N+]3=Cc4ccc5[n]4[Au-]23[n]2c1ccc2-c1nc2ccccc2nc1-5.F[P-](F)(F)(F)(F)F; cell line = SK-MEL-2; test = NCI60 five-dose screen; endpoint = TGI; value = 4 -log M
SMILES = CC(=O)c1ccc(S(=O)(=O)NC23CCCC(C)(CCC4C2CC4(C)C)C3)cc1 (centres unmarked); cell line = HT-29; test = cell growth or viability, CCK-8; setting = 50 µM; endpoint = inhibition; value = 98.9%
SMILES = CCNc1cc2c(cc1C)C1(c3cc(C)c(NCC)cc3O2)c2ccccc2C(=O)N1N=Cc1c[c-]c(-c2ccccn2)cc1.Cc1c(C)c(-c2ccc(-c3ccccc3)cc2)[c-](C)c1C.[Cl-].[Ir+3]; cell line = A549; test = PI flow cytometry; setting = 0.5 x IC50, 24 h; endpoint = G0/G1 phase cells; value = 53.69 ± 0.51%
SMILES = N#C[C@@H]1CCCN1C(=O)CNC(=O)c1ccnc2ccc(OCCCN3CCN(C(=O)CCc4ccc(O)c(CN5CCN6CC(=O)[O][Al-]([18F])([O]C(=O)C5)[O]c5ccc(CCC(=O)N7CCN(CCCOc8ccc9nccc(C(=O)NCC(=O)N%10CCC[C@H]%10C#N)c9c8)CC7)cc5C6)c4)CC3)cc12 (some centres unmarked); cell line = HT1080 cells expressing human FAP; setting = 120 min, 37 °C; endpoint = internalized fraction; value = 72.6 ± 3.3%
SMILES = Cc1cc(Cl)cc(-c2ccnc3cc(CN4C(=O)C5C(C4=O)C5(C)C)sc23)c1C[C@@H]1CNCCO1 (some centres unmarked); cell line = CHP-212 resistant cells (pooled); test = PI flow cytometry; setting = 0.1 µM, 24 h; endpoint = cells in G2/M phase; value = 16.7% and 13.7% and 10.3%
SMILES = CCC(=CCc1c(O)cc2c(c1O)C(=O)CC(c1cccc(OC)c1O)O2)CC (centres unmarked); cell line = HeLa; test = cell growth or viability, MTT; setting = 25 µM, 48 h; endpoint = inhibition; value = 65.3%
SMILES = CCCNc1ncc2c(/C=C/C(=O)N3CCC(OC)CC3)nn(Cc3cccc(C(F)(F)F)c3)c2n1; cell line = OE33; test = cell growth or viability, resazurin; setting = 5 days; endpoint = EC50; value = 3160 nM
SMILES = CC12CCCC(NC(=O)c3ccc4ccccc4c3)(C1)C1CC(C)(C)C1CC2 (centres unmarked); cell line = HT-29; test = cell growth or viability, CCK-8; setting = 10 µM; endpoint = inhibition; value = < 50%
SMILES = CN1CCCNC(=O)c2cccc(c2)C(=O)NCCCN(C)CCCNc2cccc3c2C(=O)c2cccc(c2C3=O)NCCC1; cell line = SAS; test = RNA-Seq, refers to: LTBR mRNA; setting = 1 µM, 6 h; how to read = reference: untreated cells; endpoint = log2 fold change; value = -1.08
SMILES = CCC(=CCc1c(O)cc2c(c1O)C(=O)CC(c1cccc(O)c1)O2)CC (centres unmarked); cell line = HeLa; test = cell growth or viability, MTT; setting = 12.5 µM, 48 h; endpoint = inhibition; value = 18.5%
SMILES = CC12CCCC(n3cc(C(=O)N4CC(N)C4)nn3)(C1)C1CC(C)(C)C1CC2 (centres unmarked); cell line = HT-29; test = cell growth or viability, CCK-8; setting = 10 µM; endpoint = inhibition; value = 75.7%
SMILES = CCC(=CCc1c(O)cc2c(c1O)C(=O)CC(c1cc(O)ccc1OC)O2)CC (centres unmarked); cell line = HeLa; test = cell growth or viability, MTT; setting = 50 µM, 48 h; endpoint = inhibition; value = 71.4%
SMILES = CNS(=O)(=O)Nc1nccc(Cc2c(C)c3ccc(Oc4ncccc4F)cc3oc2=O)c1F; cell line = Kasumi-2; test = cell viability, CellTiter-Glo; setting = 7 days; endpoint = IC50; value = 1.95 nM
SMILES = Cc1cc2oc(=O)cc(Cn3ccnc3)c2cc1C; cell line = COS-7 (untransfected); setting = 500 µM, unit not given; how to read = reference: 3 µM ionomycin; endpoint = calcium mobilisation signal; value = 0.54 ± 0.64
SMILES = O=S(=O)(Nc1ccc(OC(F)(F)F)cc1)N1CCCC(C2c3ccccc3CCc3ccccc32)C1 (centres unmarked); cell line = D341; test = CellTiter; setting = concentration not given, 72 h; endpoint = cell proliferation; value = decreased
SMILES = CC(C)C[C@H](NC(=O)[C@@H]1CCCN1C(=O)[C@H](CCCCN)NC(=O)[C@@H](N)CO)C(=O)N1CCC[C@H]1C(=O)N[C@@H](CCC(=O)O)C(=O)N[C@H](C(=O)N[C@H](C(=O)N[C@@H](CC(=O)O)C(=O)N[C@@H](CCC(=O)O)C(=O)N[C@@H](Cc1ccc(O)cc1)C(=O)NCC(=O)NCCOCCOCCOCCOCCOCCOCCOCCOCCOCCOCCOCCOCCOCCOCCOCCOCCOCCOCCOCCOCCOCCOCCOCCOCCC(=O)N[C@@H](CCCCNC(=O)CC[C@H](C(=O)O)N1CCN(CC(=O)O)CCN(CC(=O)O)CC1)C(=O)N1CCN(CCCN(C)c2ccc3nccc(C(=O)NCC(=O)N4CC(F)(F)C[C@H]4C#N)c3c2)CC1)[C@@H](C)O)C(C)C; cell line = MRC5; test = cell binding, flow cytometry; setting = 4 °C; endpoint = Kd; value = 10 nM
SMILES = O=C(C[Se]C(=O)c1cc2ccccc2o1)Nc1cccc(C(F)(F)F)c1; cell line = NCI60 leukemia subpanel; test = cell growth; setting = 10 µM, 48 h, one-dose; endpoint = mean growth percent; value = -76.7%
SMILES = COc1ccc(CNC[C@@](O)(COCc2ccc(OC)cc2)[C@@H]2CC[C@@H](C)C[C@H]2OCc2ccc(OC)cc2)cc1; cell line = A2780; test = cell growth or viability, MTT; setting = 30 µM, 72 h; endpoint = inhibition; value = 101%
SMILES = CC(=O)N1C[C@H](O)C[C@H]1C(=O)N[C@H](C(=O)N[C@@H](CO)C(=O)N[C@@H](CC(=O)O)C(=O)COC(=O)c1c(C)cccc1C)C(C)C; cell line = THP-1 cells, LPS-primed; test = pyroptosis, LDH release; setting = 25 µM, LPS 1 µg/mL, 4 h, with: nigericin 5 µM, 2 h; endpoint = cell lysis; value = 68.5% and 48.8%
SMILES = Cn1ncc2cc(-c3cncc(Cl)c3N3CCC4(CCNC4=O)CC3)ccc21; cell line = LS174T; test = gene expression, microarray, refers to: TIPARP mRNA; setting = concentration not given, 4 h; how to read = reference: untreated cells; endpoint = log2 fold change; value = -1.4
SMILES = CC(=O)N[C@@H](CC(=O)O)C(=O)N[C@@H](CO)C(=O)N[C@H](C(=O)N[C@@H](CC(=O)O)C(=O)COC(=O)c1c(C)cccc1C)C(C)C; cell line = THP-1 cells, LPS-primed; test = pyroptosis, LDH release; setting = 25 µM, LPS 1 µg/mL, 4 h, with: nigericin 5 µM, 2 h; endpoint = cell lysis; value = 67.4%
SMILES = COc1ccc2c(c1)OC1=C(C(=O)CCC1)C2c1c[nH]c2ccccc12 (centres unmarked); cell line = 3T3-L1 mature adipocytes; test = lipolysis, Oil Red O staining; setting = IC20; endpoint = mean lipid content; value = 0.725 OD492
SMILES = O=S(=O)(N[C@H]1CCO[C@@H](C2c3ccccc3CCc3ccccc32)C1)c1ccc(OC(F)(F)F)cc1; cell line = D341; test = immunoblot; setting = concentration not given, 72 h; endpoint = Bad phosphorylation; value = decreased
SMILES = Cc1ncsc1-c1ccc(C(C)NC(=O)C2CC(O)CN2C(=O)C(NC(=O)CCCCCCCCCCN2CCCC(Nc3ncc(Cl)c(Nc4ccccc4S(=O)(=O)C(C)C)n3)C2)C(C)(C)C)cc1 (centres unmarked); cell line = 22Rv1; test = RNA-seq, refers to: PHOSPHO2 mRNA; setting = concentration not given; how to read = reference: DMSO; endpoint = log2 fold change; value = -1.64
SMILES = C=CC(=O)N1[C@H](c2ccc3c(c2)OCO3)c2[nH]c3ccccc3c2C[C@H]1C(=O)N1CCOCC1; cell line = 22Rv1; test = ATAC-seq; setting = concentration not given, log2FC -1; endpoint = decreased accessible sites; value = 960 sites
